Experimental data gathered from unrelated publications.
Several values in a cell are separate wells, animals, samples, runs or records. ± marks the error that the study gave.
ALB: Albumin (ALB, Homo sapiens, UniProt P02768)
UniProt P41250, sequence (whole entry, looked up): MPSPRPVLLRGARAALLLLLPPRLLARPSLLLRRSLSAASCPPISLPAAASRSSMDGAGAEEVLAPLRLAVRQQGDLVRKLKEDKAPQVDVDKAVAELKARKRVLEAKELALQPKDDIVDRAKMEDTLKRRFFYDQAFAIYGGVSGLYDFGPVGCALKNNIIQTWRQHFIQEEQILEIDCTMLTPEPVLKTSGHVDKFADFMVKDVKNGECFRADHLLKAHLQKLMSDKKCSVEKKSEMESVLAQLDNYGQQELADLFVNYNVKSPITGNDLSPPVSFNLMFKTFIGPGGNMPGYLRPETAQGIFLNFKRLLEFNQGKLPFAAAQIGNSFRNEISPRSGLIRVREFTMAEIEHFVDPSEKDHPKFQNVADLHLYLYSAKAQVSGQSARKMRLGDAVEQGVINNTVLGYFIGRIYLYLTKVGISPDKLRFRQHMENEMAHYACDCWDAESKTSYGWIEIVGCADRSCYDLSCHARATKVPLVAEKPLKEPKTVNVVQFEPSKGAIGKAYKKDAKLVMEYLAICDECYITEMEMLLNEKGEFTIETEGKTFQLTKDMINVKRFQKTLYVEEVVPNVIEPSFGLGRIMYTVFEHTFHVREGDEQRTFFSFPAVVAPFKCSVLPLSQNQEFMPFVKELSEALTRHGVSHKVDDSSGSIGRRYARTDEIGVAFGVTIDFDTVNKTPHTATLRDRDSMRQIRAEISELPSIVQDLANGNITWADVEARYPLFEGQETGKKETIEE
UniProt Q14524, sequence (whole entry, looked up): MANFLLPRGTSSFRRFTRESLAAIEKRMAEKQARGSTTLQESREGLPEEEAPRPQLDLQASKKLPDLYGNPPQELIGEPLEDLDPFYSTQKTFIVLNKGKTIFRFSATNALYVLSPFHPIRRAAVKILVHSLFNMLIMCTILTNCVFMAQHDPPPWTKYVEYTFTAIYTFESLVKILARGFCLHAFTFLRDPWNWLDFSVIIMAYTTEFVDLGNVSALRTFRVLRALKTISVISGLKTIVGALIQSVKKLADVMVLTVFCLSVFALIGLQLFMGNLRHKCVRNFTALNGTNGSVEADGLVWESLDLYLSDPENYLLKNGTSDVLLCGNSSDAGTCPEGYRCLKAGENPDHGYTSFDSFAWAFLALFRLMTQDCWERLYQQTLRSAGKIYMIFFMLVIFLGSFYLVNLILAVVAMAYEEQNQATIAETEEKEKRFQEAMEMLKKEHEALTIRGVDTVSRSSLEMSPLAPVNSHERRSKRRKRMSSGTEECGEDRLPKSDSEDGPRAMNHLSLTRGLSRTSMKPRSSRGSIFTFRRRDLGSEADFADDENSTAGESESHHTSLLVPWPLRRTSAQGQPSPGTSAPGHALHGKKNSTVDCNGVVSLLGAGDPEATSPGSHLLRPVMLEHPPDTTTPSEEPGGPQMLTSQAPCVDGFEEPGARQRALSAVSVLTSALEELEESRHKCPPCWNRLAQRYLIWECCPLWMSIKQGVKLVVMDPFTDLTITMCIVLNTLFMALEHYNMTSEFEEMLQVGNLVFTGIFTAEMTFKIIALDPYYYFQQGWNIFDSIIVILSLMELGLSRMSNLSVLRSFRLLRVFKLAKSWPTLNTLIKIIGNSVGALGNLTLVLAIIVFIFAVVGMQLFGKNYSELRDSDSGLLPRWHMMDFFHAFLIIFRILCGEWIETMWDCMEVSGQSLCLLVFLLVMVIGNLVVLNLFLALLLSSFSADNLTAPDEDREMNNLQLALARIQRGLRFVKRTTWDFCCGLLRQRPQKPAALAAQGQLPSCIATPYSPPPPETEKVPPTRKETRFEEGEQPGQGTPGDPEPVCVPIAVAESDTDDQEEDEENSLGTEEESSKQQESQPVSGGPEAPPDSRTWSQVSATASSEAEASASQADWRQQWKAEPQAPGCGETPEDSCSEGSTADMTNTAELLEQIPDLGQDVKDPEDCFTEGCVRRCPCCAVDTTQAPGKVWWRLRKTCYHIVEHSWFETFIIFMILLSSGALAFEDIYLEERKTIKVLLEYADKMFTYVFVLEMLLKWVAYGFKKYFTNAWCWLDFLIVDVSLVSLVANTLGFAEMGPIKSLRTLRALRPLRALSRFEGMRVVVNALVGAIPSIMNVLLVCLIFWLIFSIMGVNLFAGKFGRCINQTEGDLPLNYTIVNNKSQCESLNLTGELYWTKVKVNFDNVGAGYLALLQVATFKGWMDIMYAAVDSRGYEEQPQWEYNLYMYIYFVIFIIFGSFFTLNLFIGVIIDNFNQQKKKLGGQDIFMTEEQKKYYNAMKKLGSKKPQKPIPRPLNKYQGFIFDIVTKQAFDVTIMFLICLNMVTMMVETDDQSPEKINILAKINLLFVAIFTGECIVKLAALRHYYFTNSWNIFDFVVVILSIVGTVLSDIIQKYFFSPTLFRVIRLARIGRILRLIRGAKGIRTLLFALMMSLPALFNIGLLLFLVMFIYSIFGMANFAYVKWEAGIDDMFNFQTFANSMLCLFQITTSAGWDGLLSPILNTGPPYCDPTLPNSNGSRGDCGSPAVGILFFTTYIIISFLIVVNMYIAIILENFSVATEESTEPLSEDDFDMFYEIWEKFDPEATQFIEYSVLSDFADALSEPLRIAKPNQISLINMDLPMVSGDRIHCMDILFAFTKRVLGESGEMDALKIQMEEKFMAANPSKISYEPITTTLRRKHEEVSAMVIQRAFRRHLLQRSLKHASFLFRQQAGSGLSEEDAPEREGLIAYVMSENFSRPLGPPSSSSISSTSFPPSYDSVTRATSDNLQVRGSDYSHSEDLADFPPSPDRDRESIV
UniProt Q16774, sequence (whole entry, looked up): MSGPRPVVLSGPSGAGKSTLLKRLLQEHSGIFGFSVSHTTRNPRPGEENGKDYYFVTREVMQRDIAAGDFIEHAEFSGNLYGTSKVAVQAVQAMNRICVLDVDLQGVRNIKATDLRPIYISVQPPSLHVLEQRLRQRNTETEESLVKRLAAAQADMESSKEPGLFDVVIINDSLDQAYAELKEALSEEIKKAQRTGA
UniProt Q59S66, sequence (whole entry, looked up): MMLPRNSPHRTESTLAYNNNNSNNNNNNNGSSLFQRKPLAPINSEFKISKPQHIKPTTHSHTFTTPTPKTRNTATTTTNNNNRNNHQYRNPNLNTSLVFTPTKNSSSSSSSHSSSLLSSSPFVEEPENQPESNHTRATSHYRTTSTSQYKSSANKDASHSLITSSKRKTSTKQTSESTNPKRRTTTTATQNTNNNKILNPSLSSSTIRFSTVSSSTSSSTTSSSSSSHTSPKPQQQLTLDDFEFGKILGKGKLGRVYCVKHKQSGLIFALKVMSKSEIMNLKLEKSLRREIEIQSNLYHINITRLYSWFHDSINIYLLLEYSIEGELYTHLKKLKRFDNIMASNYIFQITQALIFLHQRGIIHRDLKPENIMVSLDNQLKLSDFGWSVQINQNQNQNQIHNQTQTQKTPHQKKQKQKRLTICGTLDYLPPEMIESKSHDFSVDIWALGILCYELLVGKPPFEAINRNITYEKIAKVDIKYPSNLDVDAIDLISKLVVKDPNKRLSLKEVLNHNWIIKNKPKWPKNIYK
UniProt P0A7D4, sequence (whole entry, looked up): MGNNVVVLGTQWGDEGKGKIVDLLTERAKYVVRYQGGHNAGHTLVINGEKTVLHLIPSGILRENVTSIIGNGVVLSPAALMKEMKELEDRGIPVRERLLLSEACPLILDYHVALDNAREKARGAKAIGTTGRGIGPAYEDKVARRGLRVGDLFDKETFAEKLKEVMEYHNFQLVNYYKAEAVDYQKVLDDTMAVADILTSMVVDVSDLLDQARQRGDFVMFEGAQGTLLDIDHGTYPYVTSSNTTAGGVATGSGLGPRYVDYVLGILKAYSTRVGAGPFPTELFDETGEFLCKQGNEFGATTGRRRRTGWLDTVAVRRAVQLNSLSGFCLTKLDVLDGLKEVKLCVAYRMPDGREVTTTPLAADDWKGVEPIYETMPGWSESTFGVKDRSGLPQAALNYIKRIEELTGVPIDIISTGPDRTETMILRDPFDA
UniProt P51575, sequence (whole entry, unmodified, looked up): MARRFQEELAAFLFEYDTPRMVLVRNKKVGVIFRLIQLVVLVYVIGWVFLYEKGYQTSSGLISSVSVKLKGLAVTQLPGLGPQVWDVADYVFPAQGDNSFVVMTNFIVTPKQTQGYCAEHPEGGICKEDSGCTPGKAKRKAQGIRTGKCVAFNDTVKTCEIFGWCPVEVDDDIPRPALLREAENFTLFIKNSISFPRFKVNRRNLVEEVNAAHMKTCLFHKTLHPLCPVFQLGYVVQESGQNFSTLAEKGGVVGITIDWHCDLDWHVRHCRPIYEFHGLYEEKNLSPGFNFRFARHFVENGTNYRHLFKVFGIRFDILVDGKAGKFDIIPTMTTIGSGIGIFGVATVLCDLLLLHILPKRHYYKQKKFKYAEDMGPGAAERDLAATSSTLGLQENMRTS

SMILES	target	assay	system	setting	how to read	endpoint	value
O=c1cc(CO)occ1[O-].[Cl-].[W+4].c1cc[cH-]c1.c1cc[cH-]c1	ALB	binding, van't Hoff fluorescence quenching		concentration not given		enthalpy change	-6.07 kJ/mol
CCN(CCO)CCCC(C)Nc1ccnc2cc(Cl)ccc12 (stereo not drawn)	Sodium channel protein type 5 subunit alpha (SCN5A, Homo sapiens, UniProt Q14524)	sodium current, whole-cell patch clamp		10 µM, without ATX-II		activation slope factor	3.56 mV/e-fold and 1.27 mV/e-fold and 2.17 mV/e-fold
O=C(COP(=O)(O)O)[C@@H](O)[C@H](O)[C@H](O)COP(=O)(O)O	Glycine--tRNA ligase (Homo sapiens, UniProt P41250)	thermal proteome profiling, refers to: GARS	HepG2 cell lysate	concentration not given, 57 over 37 °C	relative to: compound over control	thermal stability ratio	0.639 and 0.543 and 0.603
N[C@H](CNC(=O)c1ccc(-c2cccc3ccccc23)s1)C(=O)O	Glutamate receptor ionotropic, NMDA 1, with GluN2D (Grin1, Rattus norvegicus, UniProt P35439)			added: glutamate 300 µM		Hill slope	1.4
CC[C@H](C)[C@@H]1NC(=O)[C@H](Cc2ccc(-c3ccccc3)cc2)NC(=O)[C@H](CC2CCC2)NC(=O)[C@@H]2[C@@H](c3ccccc3)CCN2C(=O)[C@@H](NC(=O)[C@H](CCCNC(=N)N)NC(=O)[C@H](CCCNC(=N)N)NC(C)=O)CSSC[C@@H](C(=O)N[C@@H](CCCNC(=N)N)C(=O)N[C@@H](CCCNC(=N)N)C(N)=O)NC(=O)[C@H](C(C)C)NC(=O)[C@@H]2CCCN2C(=O)[C@H](CC(=O)O)NC(=O)[C@H](Cc2ccc(O)cc2)NC(=O)[C@H](CO)NC1=O	GTPase KRas, GDP-bound (KRAS, Homo sapiens, UniProt P01116, G12D)	affinity selection mass spectrometry		mixture library 3, added: protein titration up to 2.5 µM	lower is stronger binding	lowest bound protein concentration	0.31 µM
Nc1nc2c(ncn2[C@@H]2O[C@H](COP(=O)(O)O)[C@@H](O)[C@H]2O)c(=O)[nH]1	GUK1 (Homo sapiens, UniProt Q16774)	enzyme activity, NADH-coupled		125 µM, added: KCl 150 mM		reaction velocity	0.0807 µM/s and 0.0809 µM/s and 0.0475 µM/s
Nc1nc2c(ncn2[C@@H]2O[C@H](COP(=O)(O)OP(=O)(O)O)[C@@H](OP(=O)(O)OP(=O)(O)O)[C@H]2O)c(=O)[nH]1	Adenylosuccinate synthetase (purA, Escherichia coli, UniProt P0A7D4)	ITC		concentration not given		binding stoichiometry	2.02 ± 0.03
NC/C(=C\F)COc1cccc(Cn2c(=S)[nH]c(=O)c3[nH]cnc32)c1	Amine oxidase copper-containing 3 (Canis lupus familiaris, UniProt A0A8I3MYY3)	inhibitor	dog adipose tissue	0.0005 µM		inhibition	14.1%
CCCCCCCCCCCCCCCCCC	uncharacterized protein (Spodoptera exigua, UniProt F1CEY0)	binding, competitor, fluorescence displacement		20 µM, pH 7.4, added: 1-NPN 20 µM	relative to: 1-NPN alone	relative fluorescence	83.3%
Cc1cc(-c2ccnc3[nH]cc(F)c23)cc(F)c1[C@@]1(O)[C@H](C)CN(C2CCS(=O)(=O)CC2)C[C@@H]1C	Tyrosine-protein kinase JAK1 (JAK1, Homo sapiens, UniProt P23458)	ATP/ADP probe binding, KiNativ	HEK293T lysate	0.1 µM, activation loop domain 2		probe labelling inhibition	10.1%
CC(C)(COP(=O)(O)OP(=O)(O)OC[C@H]1O[C@@H](n2cnc3c(N)ncnc32)[C@H](O)[C@@H]1OP(=O)(O)O)[C@@H](O)C(=O)NCCC(=O)NCCS	ATP-citrate synthase (ACLY, Homo sapiens, UniProt P53396)	thermal shift		400 µM, ACLY 1 µM		melting temperature	46.1 °C
CCN(CC)c1ccc2c(c1)Oc1cc(N(CC)CC)ccc1C21c2ccccc2C(=O)N1c1ccccc1C(=O)OCOC(=O)C1(C)CC1	porcine liver esterase	ester hydrolysis		added: PLE 1.2 nM		Km	~0.12 µM
Oc1ccccc1-c1n[nH]cc1-c1ccnc2ccccc12	Aurora kinase (IPL1, Candida albicans, UniProt Q59S66)	kinase binding, MIB/MS competition	Candida albicans lysate	10 µM	relative to: DMSO, negative = stronger binding	log2 fold change	0.2
COc1cc(-c2[o+]c3cc(O)cc(O)c3cc2O[C@@H]2O[C@H](CO)[C@@H](O)[C@H](O)[C@H]2O)cc(O)c1O	ALB	binding, fluorescence quenching		20 °C		Gibbs free energy	-25.4 kJ/mol
Nc1ncnc2c1ncn2[C@@H]1O[C@H](COP(=O)(O)CP(=O)(O)OP(=O)(O)O)[C@@H](O)[C@H]1O	P2X purinoceptor 1 (P2RX1, Homo sapiens, UniProt P51575, D97A)	calcium influx		10 µM	relative to: ionomycin response	calcium influx	100%
